Experimental data of several laboratories.
HDAC3: Histone deacetylase 3 (HDAC3, Homo sapiens, UniProt O15379)
UniProt O15379, sequence (whole entry, looked up): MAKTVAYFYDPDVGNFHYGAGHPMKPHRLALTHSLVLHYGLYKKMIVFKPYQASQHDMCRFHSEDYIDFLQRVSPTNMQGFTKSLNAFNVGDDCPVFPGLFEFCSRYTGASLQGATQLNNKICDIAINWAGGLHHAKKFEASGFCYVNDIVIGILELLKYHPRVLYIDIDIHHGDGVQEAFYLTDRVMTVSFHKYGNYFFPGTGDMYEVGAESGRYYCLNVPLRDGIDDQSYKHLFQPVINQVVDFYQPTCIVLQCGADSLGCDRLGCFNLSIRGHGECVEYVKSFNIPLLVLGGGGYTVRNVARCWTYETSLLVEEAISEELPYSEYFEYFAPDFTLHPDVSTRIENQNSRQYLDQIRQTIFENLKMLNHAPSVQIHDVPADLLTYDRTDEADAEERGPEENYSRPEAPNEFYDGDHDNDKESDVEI

Compound	target	test	test system	setting	quantity	value
C[S@@](=N)(=O)c1ccc(C(=O)Nc2cc(-c3ccc(F)cc3)ccc2N)cc1	Histone deacetylase 3, with NCoR2 (HDAC3, Homo sapiens, UniProt O15379)			3 h	IC50	1200 nM
Cc1c(COc2cc(OCc3cccc(C#N)c3)c(CNC(CO)(CO)CO)cc2Cl)cccc1-c1cccc(OCCCCCCC(=O)NO)c1	HDAC3	enzyme activity, inhibitor			IC50	51.2 nM
O=C(/C=C/c1cccc(OS(=O)(=O)Oc2ccc(Br)cc2)c1)NO	Histone deacetylase 3, with NCoR2 DAD (HDAC3, Homo sapiens, UniProt O15379)	enzyme activity, inhibitor, fluorogenic			Ki	20 nM
Cc1nc2c(F)cc(-c3nc(Nc4ccc(CNC(=O)CCCCCCC(=O)NO)cc4)ncc3F)cc2n1C(C)C	HDAC3	enzyme activity, inhibitor			IC50	56 nM
Cc1c(COc2cc(OCc3cccc(C#N)c3)c(CNC(C)(CO)CO)cc2Cl)cccc1-c1cccc(OCCCCCCC(=O)NO)c1	HDAC3	enzyme activity, inhibitor			IC50	48.9 nM
COc1ccc(C(=O)NO)cc1NC(=O)c1ccc(-c2ccccc2)cc1	HDAC3	inhibitor, competition pulldown	SW620 and MV4-11 lysate	1 h	Kd	> 30200 nM
CC[C@H](C)[C@@H]1NC(=O)[C@H](Cc2ccccc2C(F)(F)F)NC(=O)CCSCc2cccc(n2)CSCCCNC(=O)[C@H](CCCCCC(=O)NO)NC1=O	HDAC3	enzyme activity, inhibitor, fluorescence			Ki	4 nM
O=C(CCc1ccc(CNC(C(=O)OC2CCCC2)C2CCCCC2)cn1)NO (stereo not shown)	HDAC3	enzyme activity, inhibitor			IC50	692 nM
O=C(NO)c1cnc(NC2(c3cccc(F)c3)CCCCC2)nc1	HDAC3	inhibitor, competition pulldown	SW620 and MV4-11 lysate	1 h	Kd	> 30200 nM
Cc1c(COc2cc(OCc3cccc(C#N)c3)c(CN3CCCC[C@H]3C(=O)O)cc2Cl)cccc1-c1cccc(OCCCCCCC(=O)NO)c1	HDAC3	enzyme activity, inhibitor			IC50	15.4 nM
